Measured values collected from several papers.
A part holds a random share of what one study measured. Changes are numbered by the printed parent chain.
Sequence of UniProt P42336 (whole entry, unmodified, looked up): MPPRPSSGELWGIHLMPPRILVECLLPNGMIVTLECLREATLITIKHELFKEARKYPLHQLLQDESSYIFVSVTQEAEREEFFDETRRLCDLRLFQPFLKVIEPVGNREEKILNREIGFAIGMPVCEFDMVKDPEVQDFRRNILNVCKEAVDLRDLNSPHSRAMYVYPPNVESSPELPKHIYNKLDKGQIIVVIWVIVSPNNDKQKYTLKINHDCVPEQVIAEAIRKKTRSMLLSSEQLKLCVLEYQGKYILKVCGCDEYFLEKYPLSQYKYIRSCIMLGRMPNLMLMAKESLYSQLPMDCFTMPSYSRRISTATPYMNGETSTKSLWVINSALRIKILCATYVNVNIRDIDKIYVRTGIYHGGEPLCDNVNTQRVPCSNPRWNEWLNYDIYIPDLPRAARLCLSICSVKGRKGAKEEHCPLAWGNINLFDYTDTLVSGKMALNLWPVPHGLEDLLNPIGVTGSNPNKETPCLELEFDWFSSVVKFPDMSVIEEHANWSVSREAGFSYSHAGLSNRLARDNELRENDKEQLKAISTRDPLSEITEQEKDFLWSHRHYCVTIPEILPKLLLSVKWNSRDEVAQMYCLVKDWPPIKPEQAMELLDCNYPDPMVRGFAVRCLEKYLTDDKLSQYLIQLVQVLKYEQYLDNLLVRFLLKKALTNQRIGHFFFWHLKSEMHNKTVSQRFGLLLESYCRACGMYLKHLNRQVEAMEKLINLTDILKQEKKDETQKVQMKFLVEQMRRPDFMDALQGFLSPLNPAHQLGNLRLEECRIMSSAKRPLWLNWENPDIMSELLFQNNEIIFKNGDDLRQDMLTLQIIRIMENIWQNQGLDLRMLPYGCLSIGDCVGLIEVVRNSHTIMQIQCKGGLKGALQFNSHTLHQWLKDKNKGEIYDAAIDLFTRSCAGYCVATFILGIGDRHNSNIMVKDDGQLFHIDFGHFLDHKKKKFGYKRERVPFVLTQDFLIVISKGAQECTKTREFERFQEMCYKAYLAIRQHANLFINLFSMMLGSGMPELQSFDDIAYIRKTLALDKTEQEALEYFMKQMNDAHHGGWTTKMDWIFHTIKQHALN
Sequence of UniProt Q13131 (whole entry, looked up): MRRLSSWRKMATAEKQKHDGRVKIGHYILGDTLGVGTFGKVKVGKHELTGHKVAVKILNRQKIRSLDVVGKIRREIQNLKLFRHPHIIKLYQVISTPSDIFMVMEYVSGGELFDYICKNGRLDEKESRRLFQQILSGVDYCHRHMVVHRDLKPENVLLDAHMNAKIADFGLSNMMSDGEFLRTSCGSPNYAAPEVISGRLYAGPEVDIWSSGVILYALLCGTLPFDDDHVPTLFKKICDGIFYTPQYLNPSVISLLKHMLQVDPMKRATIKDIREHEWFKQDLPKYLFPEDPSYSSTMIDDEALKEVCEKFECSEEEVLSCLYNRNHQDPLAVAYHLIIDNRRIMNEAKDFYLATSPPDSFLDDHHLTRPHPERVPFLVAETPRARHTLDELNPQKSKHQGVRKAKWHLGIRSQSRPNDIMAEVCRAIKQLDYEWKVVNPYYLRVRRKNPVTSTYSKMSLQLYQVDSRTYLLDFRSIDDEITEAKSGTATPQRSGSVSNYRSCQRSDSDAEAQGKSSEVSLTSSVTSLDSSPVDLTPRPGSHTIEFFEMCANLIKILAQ
Sequence of UniProt Q5S007 (whole entry, looked up): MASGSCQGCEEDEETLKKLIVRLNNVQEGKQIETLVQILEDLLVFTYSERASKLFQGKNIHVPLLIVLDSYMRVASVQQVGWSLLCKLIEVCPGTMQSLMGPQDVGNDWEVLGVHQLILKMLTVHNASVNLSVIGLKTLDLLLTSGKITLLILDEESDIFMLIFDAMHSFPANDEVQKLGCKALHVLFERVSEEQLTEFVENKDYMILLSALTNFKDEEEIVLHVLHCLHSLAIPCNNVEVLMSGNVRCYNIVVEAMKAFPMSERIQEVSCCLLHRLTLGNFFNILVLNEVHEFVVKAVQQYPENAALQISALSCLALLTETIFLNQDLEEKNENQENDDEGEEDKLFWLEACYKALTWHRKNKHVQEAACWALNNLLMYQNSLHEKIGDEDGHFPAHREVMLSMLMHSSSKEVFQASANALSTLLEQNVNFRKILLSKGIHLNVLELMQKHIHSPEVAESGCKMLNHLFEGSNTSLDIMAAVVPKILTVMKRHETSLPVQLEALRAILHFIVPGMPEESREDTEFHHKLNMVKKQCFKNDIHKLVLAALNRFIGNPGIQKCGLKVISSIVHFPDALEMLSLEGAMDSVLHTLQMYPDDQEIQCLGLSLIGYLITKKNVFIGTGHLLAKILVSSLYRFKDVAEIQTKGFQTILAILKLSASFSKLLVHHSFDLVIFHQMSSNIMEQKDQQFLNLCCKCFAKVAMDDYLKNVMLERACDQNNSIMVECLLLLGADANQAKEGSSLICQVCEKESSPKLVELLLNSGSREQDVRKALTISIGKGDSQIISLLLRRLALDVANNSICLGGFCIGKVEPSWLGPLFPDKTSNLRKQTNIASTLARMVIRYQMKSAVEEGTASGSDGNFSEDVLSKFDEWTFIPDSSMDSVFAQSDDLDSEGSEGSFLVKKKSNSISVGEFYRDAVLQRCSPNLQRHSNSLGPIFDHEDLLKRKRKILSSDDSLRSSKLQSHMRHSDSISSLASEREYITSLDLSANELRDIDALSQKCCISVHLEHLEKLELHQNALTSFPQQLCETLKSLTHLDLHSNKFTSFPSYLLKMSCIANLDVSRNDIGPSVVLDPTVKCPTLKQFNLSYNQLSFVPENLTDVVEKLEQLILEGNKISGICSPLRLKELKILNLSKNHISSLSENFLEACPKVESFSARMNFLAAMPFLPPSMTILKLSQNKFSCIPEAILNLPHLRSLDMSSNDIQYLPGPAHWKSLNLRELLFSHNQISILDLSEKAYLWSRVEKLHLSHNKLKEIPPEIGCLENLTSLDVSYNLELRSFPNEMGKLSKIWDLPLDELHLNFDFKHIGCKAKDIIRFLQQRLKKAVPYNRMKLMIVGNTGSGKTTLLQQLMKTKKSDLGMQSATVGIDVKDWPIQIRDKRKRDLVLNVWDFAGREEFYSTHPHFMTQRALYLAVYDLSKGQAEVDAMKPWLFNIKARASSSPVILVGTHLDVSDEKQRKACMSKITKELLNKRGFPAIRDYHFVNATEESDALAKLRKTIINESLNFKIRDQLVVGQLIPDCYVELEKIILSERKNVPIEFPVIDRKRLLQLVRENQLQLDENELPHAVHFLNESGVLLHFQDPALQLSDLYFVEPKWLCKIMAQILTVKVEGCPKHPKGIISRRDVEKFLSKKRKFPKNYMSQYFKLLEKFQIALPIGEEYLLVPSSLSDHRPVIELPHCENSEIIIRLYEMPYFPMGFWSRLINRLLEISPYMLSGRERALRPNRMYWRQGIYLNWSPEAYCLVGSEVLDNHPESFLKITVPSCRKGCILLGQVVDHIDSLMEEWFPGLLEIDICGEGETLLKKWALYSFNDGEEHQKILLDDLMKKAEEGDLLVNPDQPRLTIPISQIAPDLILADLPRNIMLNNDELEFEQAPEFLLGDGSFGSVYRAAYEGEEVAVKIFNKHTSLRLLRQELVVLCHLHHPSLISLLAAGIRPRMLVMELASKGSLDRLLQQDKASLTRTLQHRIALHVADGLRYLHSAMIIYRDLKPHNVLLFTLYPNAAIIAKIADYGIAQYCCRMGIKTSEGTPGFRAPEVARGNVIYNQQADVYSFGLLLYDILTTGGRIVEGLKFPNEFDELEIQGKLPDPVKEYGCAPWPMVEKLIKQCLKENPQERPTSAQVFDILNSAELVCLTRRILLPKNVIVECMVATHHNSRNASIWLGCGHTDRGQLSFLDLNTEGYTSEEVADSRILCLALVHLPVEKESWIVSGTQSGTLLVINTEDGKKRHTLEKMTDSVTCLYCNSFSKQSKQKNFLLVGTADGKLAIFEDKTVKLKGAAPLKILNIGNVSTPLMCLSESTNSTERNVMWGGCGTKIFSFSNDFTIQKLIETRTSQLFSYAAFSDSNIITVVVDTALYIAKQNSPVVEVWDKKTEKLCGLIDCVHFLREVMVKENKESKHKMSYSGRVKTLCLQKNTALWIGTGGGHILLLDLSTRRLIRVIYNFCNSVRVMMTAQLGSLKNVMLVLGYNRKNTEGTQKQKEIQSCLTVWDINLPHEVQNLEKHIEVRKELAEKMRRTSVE

Sample 1 — technique: DNA-protein interaction ELISA; form: double-stranded DNA, one strand shown; sample: in vitro, bacterial lysate; tested at: not given; setting: whole dsDNA probe, crude lysate protein; baseline: highest signal in screen; reading: higher = stronger binding
Target: Probable WRKY transcription factor 11, DNA-binding domain (WRKY11, Arabidopsis thaliana, UniProt Q9SV15, residues 228-325)
Construct (chain): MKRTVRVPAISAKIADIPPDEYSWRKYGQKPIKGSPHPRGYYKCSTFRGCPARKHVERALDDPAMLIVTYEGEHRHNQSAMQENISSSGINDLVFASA
Oligonucleotide	relative absorbance
AAAAAAGGAAGTACTGACGATCTGGAAAAA	14.7 % of maximum
AAAAAATATTCCGCTTTTGGCTGAATAAAA	17 % of maximum
AAAAAATGGCTCGGGTTCCAAGGTTGAAAA	16.7 % of maximum
AAAAAATGTGCCCGTGTGTGCTCGCGAAAA	19.3 % of maximum
AAAAAAACTTCTGTCCCTGTTCCCGTAAAA	13.3 % of maximum
AAAAAACCCGCCGTCGTGATTATCACAAAA	19.6 % of maximum

Sample 2 — effect on: cell-free assay; technique: competition with immobilised ligand; tested at: 1 µM
Structure (SMILES): CN([C@@H]1CCc2c(CC(=O)O)c3ccccc3n2C1)S(=O)(=O)c1ccc(F)cc1
target	remaining binding
5'-AMP-activated protein kinase catalytic subunit alpha-1 (PRKAA1, Homo sapiens, UniProt Q13131)	100%
Phosphatidylinositol 4,5-bisphosphate 3-kinase catalytic subunit alpha isoform (PIK3CA, Homo sapiens, UniProt P42336, M1043I)	100%
Leucine-rich repeat serine/threonine-protein kinase 2 (LRRK2, Homo sapiens, UniProt Q5S007)	100%

Sample 3 — target: FOS, bZIP domain (human); technique: DHFR protein complementation; sample: yeast; baseline: wild-type JUN-FOS pair; reading: higher = stronger binding
Setting: single substitutions, most at no-binding floor
Starting sequence: JUN, bZIP domain (human); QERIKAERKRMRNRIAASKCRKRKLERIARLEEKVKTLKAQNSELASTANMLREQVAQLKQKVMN; partner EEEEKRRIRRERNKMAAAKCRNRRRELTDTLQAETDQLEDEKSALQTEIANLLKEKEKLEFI
Change	binding fitness
L45P	-1.32 natural log
S47V	0.0932 natural log
N42P	-1.37 natural log
S43E	0.0737 natural log
Q55W	-0.629 natural log
T37L	0.0278 natural log
T48S	-0.328 natural log
K36F	-0.264 natural log

Sample 4 — effect on: enzyme activity; mode: inhibitor; tested at: 0.5 µM; baseline: control
Target: Casein kinase I isoform gamma-3 (CSNK1G3, Homo sapiens, UniProt Q9Y6M4)
Sequence of UniProt Q9Y6M4 (whole entry, looked up): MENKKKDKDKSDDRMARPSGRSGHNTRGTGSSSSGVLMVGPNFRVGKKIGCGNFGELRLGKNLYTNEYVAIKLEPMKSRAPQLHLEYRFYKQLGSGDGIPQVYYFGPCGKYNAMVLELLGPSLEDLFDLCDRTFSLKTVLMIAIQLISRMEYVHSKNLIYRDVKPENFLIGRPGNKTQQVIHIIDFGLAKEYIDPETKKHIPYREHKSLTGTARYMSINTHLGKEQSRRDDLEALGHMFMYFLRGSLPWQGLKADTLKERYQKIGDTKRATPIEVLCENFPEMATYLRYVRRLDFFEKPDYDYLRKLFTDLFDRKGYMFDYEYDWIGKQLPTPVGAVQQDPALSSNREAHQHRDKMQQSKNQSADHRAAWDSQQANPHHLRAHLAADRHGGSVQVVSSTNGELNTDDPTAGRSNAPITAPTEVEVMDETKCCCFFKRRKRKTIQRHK
Compound	remaining activity [%]
C#Cc1cccc(Nc2ncnc3cc(OCCOC)c(OCCOC)cc23)c1	106
NCCNc1ncc(C(N)=O)c(Nc2cccc(C(F)(F)F)c2)n1	93.9
O=C(Nc1cccc(Nc2cc(Nc3cccc(C(F)(F)F)c3)ncn2)c1)C1CC1	107
O=C(O)c1ccc2c3c1cccc3c(=O)n1c3ccccc3nc21	96.9
Cc1nc(-c2ccccc2)c(-c2ccncc2)o1	104
Cn1c2ccccc2c2c3c(c4c5ccccc5n(CCC#N)c4c21)CNC3=O	137
CN(C)c1ccc(C=C2C(=O)Nc3ccccc32)cc1	101
COc1ccc(CNC(=O)Nc2ncc([N+](=O)[O-])s2)cc1	90.4
Nc1ccc2ncnc(NCCc3ccc(Oc4ccccc4)cc3)c2c1	96.8
